Results gathered from unrelated publications.
A part holds a random share of what one study measured.
Sequence of UniProt P10721 (whole entry, unmodified, looked up): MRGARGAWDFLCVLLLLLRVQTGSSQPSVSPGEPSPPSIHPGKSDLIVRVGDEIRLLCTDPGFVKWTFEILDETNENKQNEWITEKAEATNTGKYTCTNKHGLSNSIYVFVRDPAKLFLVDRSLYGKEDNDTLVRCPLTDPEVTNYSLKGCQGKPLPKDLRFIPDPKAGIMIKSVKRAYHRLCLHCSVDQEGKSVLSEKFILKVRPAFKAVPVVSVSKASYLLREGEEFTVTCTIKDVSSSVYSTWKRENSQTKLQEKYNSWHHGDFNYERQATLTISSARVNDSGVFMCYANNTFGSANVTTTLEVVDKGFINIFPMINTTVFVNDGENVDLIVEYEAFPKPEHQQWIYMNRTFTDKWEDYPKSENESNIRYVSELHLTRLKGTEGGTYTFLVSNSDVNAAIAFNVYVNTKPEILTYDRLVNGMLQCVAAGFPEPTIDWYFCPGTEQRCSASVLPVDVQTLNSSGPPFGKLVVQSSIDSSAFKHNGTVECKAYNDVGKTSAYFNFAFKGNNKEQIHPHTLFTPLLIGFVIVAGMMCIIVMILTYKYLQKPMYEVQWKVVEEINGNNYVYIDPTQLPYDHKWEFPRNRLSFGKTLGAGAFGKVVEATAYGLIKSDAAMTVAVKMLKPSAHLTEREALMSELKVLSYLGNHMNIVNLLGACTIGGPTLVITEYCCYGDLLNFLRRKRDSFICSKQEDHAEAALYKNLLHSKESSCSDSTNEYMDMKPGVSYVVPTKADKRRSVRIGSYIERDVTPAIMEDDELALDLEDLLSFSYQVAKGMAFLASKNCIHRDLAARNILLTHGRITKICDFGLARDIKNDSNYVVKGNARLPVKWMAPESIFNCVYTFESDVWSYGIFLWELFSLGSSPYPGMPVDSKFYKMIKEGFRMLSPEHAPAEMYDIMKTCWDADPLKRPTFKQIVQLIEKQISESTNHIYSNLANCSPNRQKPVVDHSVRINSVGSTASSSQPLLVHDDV
Sequence of UniProt P08631 (whole entry, looked up): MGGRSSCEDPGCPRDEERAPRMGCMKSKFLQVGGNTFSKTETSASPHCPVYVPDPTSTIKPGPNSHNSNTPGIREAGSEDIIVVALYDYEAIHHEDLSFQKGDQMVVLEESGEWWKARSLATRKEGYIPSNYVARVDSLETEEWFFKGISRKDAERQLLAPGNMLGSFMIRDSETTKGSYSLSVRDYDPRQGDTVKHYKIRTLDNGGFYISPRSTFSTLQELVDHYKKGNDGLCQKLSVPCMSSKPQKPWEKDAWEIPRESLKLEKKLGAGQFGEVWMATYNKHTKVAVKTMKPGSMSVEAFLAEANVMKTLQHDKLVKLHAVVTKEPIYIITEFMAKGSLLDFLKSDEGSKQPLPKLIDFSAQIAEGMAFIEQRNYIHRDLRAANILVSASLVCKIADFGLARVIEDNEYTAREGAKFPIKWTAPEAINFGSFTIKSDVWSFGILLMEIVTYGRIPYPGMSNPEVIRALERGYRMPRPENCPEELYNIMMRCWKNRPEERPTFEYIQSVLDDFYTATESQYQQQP
Sequence of UniProt Q9Y2U5 (whole entry, looked up): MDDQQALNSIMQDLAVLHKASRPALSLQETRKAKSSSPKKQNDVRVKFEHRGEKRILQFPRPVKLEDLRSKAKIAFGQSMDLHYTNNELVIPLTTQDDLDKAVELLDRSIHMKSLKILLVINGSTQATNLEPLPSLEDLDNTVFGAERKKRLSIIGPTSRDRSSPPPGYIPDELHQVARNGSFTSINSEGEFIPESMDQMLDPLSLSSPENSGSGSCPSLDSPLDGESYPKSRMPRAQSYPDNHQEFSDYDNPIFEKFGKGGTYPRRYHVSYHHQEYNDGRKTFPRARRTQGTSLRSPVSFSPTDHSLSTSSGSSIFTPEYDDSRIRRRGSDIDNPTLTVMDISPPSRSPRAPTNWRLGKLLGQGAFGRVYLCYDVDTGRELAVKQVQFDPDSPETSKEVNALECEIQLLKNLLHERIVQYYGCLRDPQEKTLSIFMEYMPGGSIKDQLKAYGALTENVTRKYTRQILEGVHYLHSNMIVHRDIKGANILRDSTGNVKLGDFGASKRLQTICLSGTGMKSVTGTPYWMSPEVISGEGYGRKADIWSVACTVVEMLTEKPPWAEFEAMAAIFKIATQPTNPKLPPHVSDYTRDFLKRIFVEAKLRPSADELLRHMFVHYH
Sequence of UniProt Q9BVS4 (whole entry, looked up): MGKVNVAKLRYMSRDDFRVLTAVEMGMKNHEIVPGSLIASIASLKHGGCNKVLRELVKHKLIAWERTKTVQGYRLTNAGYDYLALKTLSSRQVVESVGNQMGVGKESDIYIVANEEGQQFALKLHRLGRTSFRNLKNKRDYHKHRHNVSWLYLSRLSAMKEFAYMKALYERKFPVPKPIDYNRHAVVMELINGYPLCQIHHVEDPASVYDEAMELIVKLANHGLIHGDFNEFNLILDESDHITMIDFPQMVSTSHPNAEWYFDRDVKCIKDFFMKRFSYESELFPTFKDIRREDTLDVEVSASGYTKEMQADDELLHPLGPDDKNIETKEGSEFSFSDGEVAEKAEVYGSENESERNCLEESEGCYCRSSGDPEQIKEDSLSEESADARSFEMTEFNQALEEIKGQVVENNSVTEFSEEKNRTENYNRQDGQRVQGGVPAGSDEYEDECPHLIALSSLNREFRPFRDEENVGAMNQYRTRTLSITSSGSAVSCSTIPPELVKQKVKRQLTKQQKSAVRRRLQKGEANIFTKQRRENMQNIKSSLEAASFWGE
Sequence of UniProt Q14012 (whole entry, looked up): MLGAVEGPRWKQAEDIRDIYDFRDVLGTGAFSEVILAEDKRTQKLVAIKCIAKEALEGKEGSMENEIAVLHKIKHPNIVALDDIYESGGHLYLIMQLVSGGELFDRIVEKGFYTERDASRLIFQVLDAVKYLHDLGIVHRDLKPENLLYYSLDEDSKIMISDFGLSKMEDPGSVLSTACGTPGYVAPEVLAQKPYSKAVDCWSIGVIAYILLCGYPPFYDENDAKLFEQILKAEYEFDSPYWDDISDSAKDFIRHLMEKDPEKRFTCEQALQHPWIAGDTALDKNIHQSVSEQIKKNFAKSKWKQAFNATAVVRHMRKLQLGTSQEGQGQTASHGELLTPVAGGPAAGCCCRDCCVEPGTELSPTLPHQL

Sample 1 — read-out: enzyme activity; mode: inhibitor; concentration: 1 µM
SMILES: C=CC(=O)N1CCC([C@@H]2CCNc3c(C(N)=O)c(-c4ccc(Oc5ccccc5)cc4)nn32)CC1
The inhibition was 0% (Serine/threonine-protein kinase RIO2 (RIOK2, Homo sapiens, UniProt Q9BVS4)).
For Tyrosine-protein kinase HCK (HCK, Homo sapiens, UniProt P08631): inhibition read 81%.
For Cyclin-dependent kinase 8 (CDK8, Homo sapiens, UniProt P49336): inhibition read 4%.
For Eukaryotic translation initiation factor 2-alpha kinase 1 (EIF2AK1, Homo sapiens, UniProt Q9BQI3): inhibition read 1%.
It gave 15% for inhibition (Cyclin-dependent kinase 15 (CDK15, Homo sapiens, UniProt Q96Q40)).
The inhibition was 5% (1-phosphatidylinositol 3-phosphate 5-kinase (PIKFYVE, Homo sapiens, UniProt Q9Y2I7)).
For Serine/threonine-protein kinase Sgk2 (SGK2, Homo sapiens, UniProt Q9HBY8): inhibition read 0%.
It gave 0% for inhibition (Mast/stem cell growth factor receptor Kit (KIT, Homo sapiens, UniProt P10721, A829P)).
It gave 0% for inhibition (SRSF protein kinase 3 (SRPK3, Homo sapiens, UniProt Q9UPE1)).
For Serine/threonine-protein kinase 38-like (STK38L, Homo sapiens, UniProt Q9Y2H1): inhibition read 5%.
Dual specificity testis-specific protein kinase 1 (TESK1, Homo sapiens, UniProt Q15569) — inhibition: 12%.

Sample 2 — read-out: cell-free assay; method: competition with immobilised ligand; concentration: 0.1 µM
SMILES: C[C@@H]1CN(c2cc(-c3n[nH]c4ccc(OC5(C)CC5)cc34)ncn2)C[C@H](C)O1
For Calcium/calmodulin-dependent protein kinase type 1 (CAMK1, Homo sapiens, UniProt Q14012): remaining binding read 100%.
For Inhibitor of nuclear factor kappa-B kinase subunit epsilon (IKBKE, Homo sapiens, UniProt Q14164): remaining binding read 74%.
The remaining binding was 73% (Mitogen-activated protein kinase kinase kinase 2 (MAP3K2, Homo sapiens, UniProt Q9Y2U5)).
The remaining binding was 93% (Cyclin-dependent kinase 11A (CDK11A, Homo sapiens, UniProt Q9UQ88)).
The remaining binding was 87% (Receptor-type tyrosine-protein kinase FLT3, autoinhibited (FLT3, Homo sapiens, UniProt P36888)).
For Mast/stem cell growth factor receptor Kit (KIT, Homo sapiens, UniProt P10721, A829P): remaining binding read 62%.
The remaining binding was 83% (Mitogen-activated protein kinase 4 (MAPK4, Homo sapiens, UniProt P31152)).
The remaining binding was 78% (3-phosphoinositide-dependent protein kinase 1 (PDPK1, Homo sapiens, UniProt O15530)).

Sample 3 — read-out: enzyme activity; mode: inhibitor; concentration: 10 µM
Target: Calcium/calmodulin-dependent protein kinase type II subunit alpha (CAMK2A, Homo sapiens, UniProt Q9UQM7)
Sequence of UniProt Q9UQM7 (whole entry, looked up): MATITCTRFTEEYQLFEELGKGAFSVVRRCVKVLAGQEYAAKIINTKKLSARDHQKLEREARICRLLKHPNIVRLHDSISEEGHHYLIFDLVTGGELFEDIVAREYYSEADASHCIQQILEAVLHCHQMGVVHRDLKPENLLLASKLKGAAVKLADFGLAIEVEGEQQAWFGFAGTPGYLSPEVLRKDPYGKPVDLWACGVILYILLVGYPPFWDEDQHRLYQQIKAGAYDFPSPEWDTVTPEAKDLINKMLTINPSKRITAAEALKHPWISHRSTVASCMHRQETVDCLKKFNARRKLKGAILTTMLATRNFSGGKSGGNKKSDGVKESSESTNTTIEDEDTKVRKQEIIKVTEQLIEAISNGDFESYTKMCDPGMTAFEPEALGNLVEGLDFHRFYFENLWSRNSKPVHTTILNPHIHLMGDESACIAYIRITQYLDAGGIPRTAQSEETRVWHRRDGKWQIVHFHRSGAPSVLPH
With `CC(C)CCC[C@@H](C)[C@H]1CC[C@H]2[C@@H]3CCC4=CC(=O)CC[C@]4(C)[C@H]3CC[C@]12C` the inhibition was -8%.
For `CC(=O)N[C@H](C(=O)O)C(C)C`, the inhibition was 57%.
The inhibition of `CC(C)C1=CC2=CC[C@@H]3[C@](C)(CCC[C@@]3(C)C(=O)O)[C@H]2CC1` is reported as -29%.
For `CC1(C)CC[C@]2(C(=O)O)CCC3=C(CC[C@@H]4[C@@]5(C)C[C@H](O)[C@H](O)[C@@](C)(C(=O)O)[C@@H]5CC[C@@]34C)[C@@H]2C1`, the inhibition was 8%.
With `O=c1cc[nH]c(=O)[nH]1` the inhibition was 12%.
The inhibition of `CCCCCCCC(=O)O[C@H](CC(=O)[O-])C[N+](C)(C)C` is reported as -28%.
For `O=c1cc(-c2ccccc2)oc2c1ccc1ccccc12`, the inhibition was 13%.

Sample 4 — read-out: enzyme activity; mode: inhibitor; concentration: 0.5 µM; baseline: control
Target: Calcium/calmodulin-dependent protein kinase type II subunit delta (CAMK2D, Homo sapiens, UniProt Q13557)
Sequence of UniProt Q13557 (whole entry, looked up): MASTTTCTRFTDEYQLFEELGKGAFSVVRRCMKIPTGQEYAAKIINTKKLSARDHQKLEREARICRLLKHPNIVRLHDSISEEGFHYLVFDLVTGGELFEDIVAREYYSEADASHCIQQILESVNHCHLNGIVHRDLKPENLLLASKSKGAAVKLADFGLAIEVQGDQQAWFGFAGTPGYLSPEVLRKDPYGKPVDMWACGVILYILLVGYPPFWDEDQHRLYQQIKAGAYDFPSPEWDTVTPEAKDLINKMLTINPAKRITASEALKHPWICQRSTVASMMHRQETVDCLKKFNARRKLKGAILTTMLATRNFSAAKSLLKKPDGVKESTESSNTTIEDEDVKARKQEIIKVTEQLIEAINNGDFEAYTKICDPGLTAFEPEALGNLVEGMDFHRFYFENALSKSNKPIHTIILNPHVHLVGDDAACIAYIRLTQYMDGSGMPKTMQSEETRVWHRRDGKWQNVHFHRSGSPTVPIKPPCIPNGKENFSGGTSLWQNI
With `O=C(O)c1ccc2c3c1cccc3c(=O)n1c3ccccc3nc21` the remaining activity was 93.6%.
`CN(C)c1ccc(C=C2C(=O)Nc3ccccc32)cc1` gave a remaining activity of 96.4%.
The remaining activity of `Nc1ccc2ncnc(NCCc3ccc(Oc4ccccc4)cc3)c2c1` is reported as 98.9%.
`Cc1nc(-c2ccccc2)c(-c2ccncc2)o1` gave a remaining activity of 94.2%.
`Cn1sc(=O)n(Cc2ccccc2)c1=O` gave a remaining activity of 98.9%.
For `O=C1NC(=O)C(c2cn(CCCn3ccnc3)c3ccccc23)=C1Nc1ccccc1`, the remaining activity was 85.4%.
`Oc1ccc(-c2nc(-c3ccncc3)c(-c3ccc(F)cc3)[nH]2)cc1` gave a remaining activity of 88.1%.
The remaining activity of `CNC(=O)c1cc(Oc2ccc(NC(=O)Nc3ccc(Cl)c(C(F)(F)F)c3)cc2)ccn1` is reported as 102%.
`Cc1ccc(NC(=O)c2ccc(CN3CCN(C)CC3)cc2)cc1Nc1nc(-c2cccnc2)cs1` has a remaining activity of 106%.
`O=C(CCCc1ccc(-c2ccccc2F)cc1)Nc1ccc(O)cc1` gave a remaining activity of 108%.
For `O=C(Nc1cccc(Nc2cc(Nc3cccc(C(F)(F)F)c3)ncn2)c1)C1CC1`, the remaining activity was 101%.
`COc1ccc(OC)c2c(=S)c3ccccc3[nH]c12` has a remaining activity of 89.8%.
`O=c1c2ccccc2[nH]c(=S)n1CCN1CCC(=C(c2ccc(F)cc2)c2ccc(F)cc2)CC1` has a remaining activity of 97.9%.
`CCOC(=O)c1c(C)[nH]c(/C=C2\C(=O)Nc3ccccc32)c1C` has a remaining activity of 93.9%.
For `O=C1NC(=O)C(c2cn(CCCO)c3ncccc23)=C1c1cnccn1`, the remaining activity was 101%.
The remaining activity of `COc1cc2nccc(Oc3ccc(NC(=S)NC(=O)c4ccccc4C)cc3)c2cc1OC` is reported as 102%.

Excerpt of the above (sample 4):
`Cc1nc(-c2ccccc2)c(-c2ccncc2)o1` gave a remaining activity of 94.2%.
`Cn1sc(=O)n(Cc2ccccc2)c1=O` gave a remaining activity of 98.9%.
For `O=C1NC(=O)C(c2cn(CCCn3ccnc3)c3ccccc23)=C1Nc1ccccc1`, the remaining activity was 85.4%.
`Oc1ccc(-c2nc(-c3ccncc3)c(-c3ccc(F)cc3)[nH]2)cc1` gave a remaining activity of 88.1%.
The remaining activity of `CNC(=O)c1cc(Oc2ccc(NC(=O)Nc3ccc(Cl)c(C(F)(F)F)c3)cc2)ccn1` is reported as 102%.
